Experimental data gathered from unrelated publications.
Lines come from different studies, so protocols differ. Several values in a cell are separate wells, animals, samples, runs or records. ± gives the spread as reported.

`CNC(=O)[C@@H](NC(=O)[C@H](CC(C)C)[C@H](O)C(=O)NO)C(C)(C)C` has a remaining activity of 94% and 96.3% and 96.6% (Daboia russelii venom proteases (SVMP); protease activity, inhibitor; GA population; 0.1 µM, with: azocasein substrate; reference: venom alone).
With `Oc1cc2c(cc1O)[C@H]1c3ccccc3CN[C@@H]1CC2` (racemic) the EC50 was over 100 µM (SARS-CoV-2; viral replication, high-content imaging screen; cell-based).
For `CC1=C[C@]23C(=O)[C@@H](C=C(CO)[C@@H](O)[C@]2(O)[C@H]1O)[C@H]1[C@@H](C[C@H]3C)C1(C)C`, the EC50 was 0.02 µM (Severe acute respiratory syndrome coronavirus; pseudoparticle entry; Vero C1008; 48 h).
The EC50 of `CS(=O)(=O)NCC1CCOC2(CCN(C(=O)C3(c4ccccc4)CCOCC3)CC2)C1` (stereo not drawn) is reported as over 39.8 µM (Venezuelan equine encephalitis virus; viral replication).
`Cn1cnc(Cn2c(=O)[nH]/c(=N\c3cc4cn(C)nc4cc3Cl)n(Cc3cc(F)c(F)cc3F)c2=O)n1` has an EC50 of 0.93 µM (murine hepatitis virus A59; viral replication, qRT-PCR; L929).
For `CC(C)[C@H](NC(=O)[C@H](CCCNC(=N)N)NC(=O)N[C@@H](Cc1ccccc1)C(=O)O)C(=O)N[C@H](C=O)CCCNC(=N)N`, the EC50 was 1.11 µM (SARS-CoV-2 Omicron BA.2; pseudovirus infection; 48 h).
`O=C(N1CCC2(CC1)CC(CNS(=O)(=O)CCCCCl)CCO2)C1(c2ccccc2)CCCC1` (stereo not drawn) has an EC50 of 10 µM (Venezuelan equine encephalitis virus; viral replication).
`O=C(NCc1cccs1)C1CCCN(Cc2cccc(-c3ccc(F)cc3F)c2)C1` (stereo not drawn) gave an AC50 of 14.1 µM (SARS-CoV-2; cytopathic effect, cell-based CPE; USA_WA1/2020; round 1, 5-point dilution).
`COC(=O)[C@H]1[C@H]2C[C@@H]3c4[nH]c5cc(OC)ccc5c4CCN3C[C@H]2C[C@@H](OC(=O)c2cc(OC)c(OC)c(OC)c2)[C@@H]1OC` gave an EC50 of over 25.1 µM (SARS-CoV-2; viral replication, GFP plate reader screen; cell-based).
For `O=C(Nc1csc(N2CCOCC2)n1)c1ccc(CN2CCOCC2)cc1`, the EC50 was over 100 µM (Lake Victoria marburgvirus; viral entry; A549; MARV-GP pseudovirus).
With `NC(=O)c1nc(F)c[nH]c1=O` the EC50 was 13.5 µM (Tacaribe virus; viral replication; Vero; 120 h).
The EC50 of `C=CCNC1=C2C[C@@H](C)C[C@H](OC)[C@H](O)[C@@H](C)/C=C(\C)[C@H](OC(N)=O)[C@@H](OC)/C=C\C=C(/C)C(=O)NC(=CC1=O)C2=O` is reported as over 10 µM (influenza A virus; viral replication; A/swine/OH/511445/2007 (H1N1)).
`Cc1cc2ncc(-c3ccc(OC(C)(C)C)cc3)n2cc1-c1ccc(OC(C)C)cc1` gave an EC50 of at most 0.004 µM (vesicular stomatitis virus; viral entry, inhibitor; pseudotyped with Machupo virus glycoprotein).
`O=C(N1CCC2(CC1)C[C@H](CN1CCCCS1(=O)=O)CCO2)C1(c2ccccc2)CCCC1` has an EC50 of over 32 µM (Influenza A virus H5N1; viral replication; MDCK).
For `Cc1cc2ncn(-c3ccc(OC(C)C)cc3)c2cc1-c1ccc(OC(C)C)cc1`, the EC50 was at most 0.004 µM (vesicular stomatitis virus; viral entry, inhibitor; pseudotyped with Lassa virus glycoprotein).
For `COc1cc(/C=C/C(=O)N2CCC=CC2=O)cc(OC)c1OC`, the EC50 was over 50.1 µM (SARS-CoV-2; viral replication, high-content imaging screen; BetaCov/Belgium/GHB-03021/2020; cell-based).
The EC50 of `O=C(Nc1ccc(N2CCC3(CCC3)CC2)c(C(F)(F)F)c1)c1ccc(CN2C[C@@H]3C[C@H]2CO3)nc1` is reported as under 0.5 µM (Reston ebolavirus; viral replication; A549).
`O=C1c2c(O)c(=O)ccn2N([C@@H]2c3ccccc3SCc3c2ccc(F)c3F)[C@@H]2COCCN12` gave an EC50 of 0.00021 ± 2e-05 µM (Influenza A virus; viral replication, plaque reduction; A(H5N8) A/gull/Delaware/486/2018; mean).
`NC(=O)c1csc([C@@H]2O[C@H](CO)[C@@H](O)[C@H]2O)n1` has an EC50 of over 100 µM (Junin virus; viral replication, inhibitor; Vero, Candid #1).
`Cc1cc2nnn(-c3ccc(OC(C)C)cc3)c2cc1-c1ccc(OC(C)C)cc1` gave an EC50 of at most 0.004 µM (vesicular stomatitis virus; viral entry, inhibitor; pseudotyped with Lassa virus glycoprotein).
`NC(=O)c1nc(F)c[nH]c1=O` gave an EC50 of 1.7 ± 0.69 µM (Lassa virus; Huh-7).
`CO[C@H]1/C=C/O[C@@]2(C)Oc3c(C)c(O)c4c(O)c(c(/C=N/N5CCN(C6CCCC6)CC5)c(O)c4c3C2=O)NC(=O)/C(C)=C\C=C\[C@H](C)[C@H](O)[C@@H](C)[C@@H](O)[C@@H](C)[C@H](OC(C)=O)[C@@H]1C` has an EC50 of 0.466 µM (Yellow fever virus; viral replication; C6).
`oseltamivir carboxylate` gave an EC50 of 9.7 µM (Influenza A virus H3N2; MTS).
`CS(=O)(=O)NCC1CCOC2(CCN(C(=O)C3(c4ccc(Cl)cc4)CCCC3)CC2)C1` (stereo not drawn) has an EC50 of over 39.8 µM (Venezuelan equine encephalitis virus; viral replication).
`O=c1ccn([C@@H]2O[C@](F)(CO)[C@@H](O)[C@H]2O)c(=O)[nH]1` has an EC50 of 0.28 µM (Mammarenavirus machupoense; viral replication; HeLa).
The EC50 of `O=C(O)[C@H]1O[C@@H](Oc2cc3oc(-c4ccccc4)cc(=O)c3c(O)c2O)[C@H](O)[C@@H](O)[C@@H]1O` is reported as 25 to 50 mg/L (SARS coronavirus; FRhK-4; 72 h).
With `CC(C)Oc1ccc(-c2ccn3cnc(-c4ccc(OC(C)C)cc4)c3c2)cc1` the EC50 was over 0.02 µM (vesicular stomatitis virus; viral entry, inhibitor; pseudotyped with Junin virus glycoprotein).
With `CCN(CC)CCOC1(c2ccccc2)CCN(CCNc2ccccc2)CC1` the EC50 was 9.55 µM (SARS-CoV-2; viral replication, GFP plate reader screen; cell-based).
`CN(C)c1ccc(N(Cc2cc(Cl)cs2)C(=O)Cc2cncc3cccc(O)c23)cc1` has an EC50 of 0.03 ± 0.02 µM (SARS-CoV-2 Omicron BQ.1.1; viral replication, nucleocapsid staining; Calu-3).
With `CN(C)C1CCN(C(=O)c2cc3ccccc3n2Cc2ccc(F)cc2)CC1` the EC50 was over 20 µM (Marburg virus; viral replication; Huh-7, Angola).
`C=C1CC[C@@H]2[C@](C)(CO)[C@H](O)CC[C@@]2(C)[C@@H]1C/C=C1/C(=O)OC[C@H]1O` gave an EC50 of over 100 µM (SARS-CoV-2; viral replication, GFP plate reader screen; cell-based).
With `O=c1nc(NO)ccn1[C@@H]1O[C@H](CO)[C@@H](O)[C@H]1O` the EC50 was 1.7 ± 0.9 µM (SARS-CoV-2 Washington strain; viral replication, qRT-PCR; Caco-2).
`CN(C)CCNC(=O)c1cc2occc2n1C` gave an EC50 of over 100 µM (Marburg virus; pseudovirus entry; A549).
`N#Cc1c(Nc2ccc(F)cc2)n[nH]c1NS(=O)(=O)c1ccc2ccccc2c1` gave an EC50 of over 8 µM (Eastern equine encephalitis virus; viral replication; Huh-7).
`Cc1cc2ncn(-c3ccc(OC(C)(C)C)cc3)c2cc1-c1ccc(OC(C)(C)O)cc1` gave an EC50 of at most 0.004 µM (vesicular stomatitis virus; viral entry, inhibitor; pseudotyped with Machupo virus glycoprotein).
With `COc1ccc2cc1Oc1ccc(cc1)C[C@H]1c3cc(c(OC)cc3CCN1C)Oc1c(OC)c(OC)cc3c1[C@H](C2)N(C)CC3` the EC50 was over 50.1 µM (SARS-CoV-2; viral replication, high-content imaging screen; BetaCov/Belgium/GHB-03021/2020; cell-based).
`Nc1ncnc2c([C@@H]3N[C@H](CO)[C@@H](O)[C@H]3O)c[nH]c12` gave an inhibition of 6.5% (Nipah henipavirus; viral replication; HeLa, Malaysia; 1.6 µM).
`CC[C@H](C)[C@H](NC(=O)[C@H](CC(C)C)NC(=O)[C@H](Cc1c[nH]c2ccccc12)NC(=O)[C@H](CCC(N)=O)NC(=O)[C@@H](NC(=O)[C@H](Cc1ccccc1)NC(=O)[C@H](C)NC(=O)[C@H](CCCCNC(=O)COCCOCCNC(=O)COCCOCCNC(=O)CC[C@H](NC(=O)CCCCCCCCCCCCCCCCCCC(=O)O)C(=O)O)NC(=O)[C@H](CCC(N)=O)NC(=O)[C@H](C)NC(=O)[C@@H](NC(=O)[C@H](CCCCN)NC(=O)[C@H](CC(=O)O)NC(=O)[C@H](CC(C)C)NC(=O)C(C)(C)NC(=O)[C@@H](NC(=O)[C@H](CO)NC(=O)[C@H](Cc1ccc(O)cc1)NC(=O)[C@H](CC(=O)O)NC(=O)[C@H](CO)NC(=O)[C@@H](NC(=O)[C@H](Cc1ccccc1)NC(=O)[C@@H](NC(=O)CNC(=O)[C@H](CCC(=O)O)NC(=O)C(C)(C)NC(=O)[C@@H](N)Cc1ccc(O)cc1)[C@@H](C)O)[C@@H](C)O)[C@@H](C)CC)[C@@H](C)CC)C(C)C)C(=O)N[C@@H](C)C(=O)NCC(=O)NCC(=O)N1CCC[C@H]1C(=O)N[C@@H](CO)C(=O)N[C@@H](CO)C(=O)NCC(=O)N[C@@H](C)C(=O)N1CCC[C@H]1C(=O)N1CCC[C@H]1C(=O)N1CCC[C@H]1C(=O)N[C@@H](CO)C(N)=O`: “subjects with application site reaction” 0% (healthy subjects; all MAD doses).
The EC50 of `CC(C)C(=O)NCC1CCOC2(CCN(C(=O)C3(c4ccccc4)CCCC3)CC2)C1` (stereo not drawn) is reported as 20 µM (Venezuelan equine encephalitis virus; viral replication).
The efficacy of `CCOc1ccc(CN2CCN(Cc3ccc4c(c3)c3ccccc3n4CC)CC2)cc1` is reported as 68.7% (SARS-CoV-2; cytopathic effect; USA_WA1/2020; round 2, 5-point).
`O=C1CCCN1CC1CCOC2(CCN(C(=O)C3(c4ccccc4)CCCC3)CC2)C1` (stereo not drawn) has an EC50 of 3.98 µM (Venezuelan equine encephalitis virus; viral replication).
The EC50 of `Nc1nc(O)c2ncn(COC(CO)CO)c2n1` is reported as over 100 µM (vaccinia virus; viral replication; HEL).
`NC(=O)c1ncn([C@@H]2O[C@H](CO)[C@@H](O)[C@H]2O)n1` has an EC50 of 16 µM (Lyssavirus rabies; viral replication, item: RABV; BHK-21).
`O=c1ccn([C@H]2[C@H](O)[C@H](O)[C@@H](CO)[C@H]2F)c(=O)[nH]1` gave an EC50 of over 100 µM (MERS-CoV; viral replication; Vero).
`OC1(c2ccc(Cl)c(C(F)(F)F)c2)CCN(CCCC(c2ccc(F)cc2)c2ccc(F)cc2)CC1` has an EC50 of over 100 µM (SARS-CoV-2; viral replication, high-content imaging screen; cell-based).
With `CN(C)S(=O)(=O)NCC1CCOC2(CCN(C(=O)C(=O)c3ccccc3)CC2)C1` (stereo not drawn) the EC50 was over 39.8 µM (Venezuelan equine encephalitis virus; viral replication).
`C#Cc1c(C(N)=O)ncn1[C@@H]1O[C@H](CO)[C@@H](O)[C@H]1O` gave an EC50 of 1.9 ± 1.2 µM (Junin virus; viral replication, inhibitor; Vero, Candid #1).
`CCC(C)n1ncn(-c2ccc(N3CCN(c4ccc(OCC5COC(Cn6cncn6)(c6ccc(Cl)cc6Cl)O5)cc4)CC3)cc2)c1=O` (stereo not drawn) has an EC50 of 1.23 ± 0.59 µM (poliovirus 1; viral replication, inhibitor; 72 h).
With `NC(=O)c1nc(F)c[nH]c1=O` the EC50 was 6.2 µM (influenza A virus; viral replication; A549, H5N1).
The EC50 of `O=c1[nH]c2ccccc2n1CCCN1CCN(C(c2ccccc2)c2ccccc2)CC1` is reported as over 100 µM (SARS-CoV-2; viral replication, GFP plate reader screen; cell-based).
With `O=C(CCCCl)NCC1CCOC2(CCN(C(=O)C3(c4ccccc4)CCCC3)CC2)C1` (stereo not drawn) the EC50 was 3.16 µM (Venezuelan equine encephalitis virus; viral replication).
For `CCCCCCCCCCCCCCCCOCCCOP(=O)(O)CO[C@H](CO)Cn1ccc(N)nc1=O`, the EC50 was 0.12 ± 0.07 µM (Monkeypox virus; viral replication; HEL 299).
`CN(C)S(=O)(=O)NCC1CCOC2(CCN(C(=O)C3(c4ccccc4)CCCC3)CC2)C1` (stereo not drawn) gave an EC50 of 7.94 µM (Venezuelan equine encephalitis virus; viral replication).
`Cn1cnc(Cn2c(=O)[nH]/c(=N\c3cc4cn(C)nc4cc3Cl)n(Cc3cc(F)c(F)cc3F)c2=O)n1` — result for “patients with adverse event”: 0% (human, all renal function groups; oral, 375 mg, hypertriglyceridaemia TEAE, Severe severity).
